Published values from different studies.
Numbered parts are unrelated; each lists some results of a single study.
Chain of UniProt P51956 (whole entry, looked up): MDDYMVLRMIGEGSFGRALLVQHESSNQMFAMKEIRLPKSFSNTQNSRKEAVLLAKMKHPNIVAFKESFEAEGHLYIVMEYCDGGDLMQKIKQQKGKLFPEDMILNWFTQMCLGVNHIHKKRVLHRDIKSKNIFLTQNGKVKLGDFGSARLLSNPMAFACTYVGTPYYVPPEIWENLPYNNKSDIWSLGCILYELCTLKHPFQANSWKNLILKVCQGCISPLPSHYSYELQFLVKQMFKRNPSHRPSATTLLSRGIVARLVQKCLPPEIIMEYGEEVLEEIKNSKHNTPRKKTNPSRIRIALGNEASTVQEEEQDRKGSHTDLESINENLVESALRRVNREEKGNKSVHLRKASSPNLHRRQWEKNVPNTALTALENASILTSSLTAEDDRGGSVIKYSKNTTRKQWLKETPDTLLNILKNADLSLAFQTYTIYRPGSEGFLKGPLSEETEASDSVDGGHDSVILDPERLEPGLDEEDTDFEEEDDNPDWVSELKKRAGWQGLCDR
Chain of UniProt Q15759 (whole entry, looked up): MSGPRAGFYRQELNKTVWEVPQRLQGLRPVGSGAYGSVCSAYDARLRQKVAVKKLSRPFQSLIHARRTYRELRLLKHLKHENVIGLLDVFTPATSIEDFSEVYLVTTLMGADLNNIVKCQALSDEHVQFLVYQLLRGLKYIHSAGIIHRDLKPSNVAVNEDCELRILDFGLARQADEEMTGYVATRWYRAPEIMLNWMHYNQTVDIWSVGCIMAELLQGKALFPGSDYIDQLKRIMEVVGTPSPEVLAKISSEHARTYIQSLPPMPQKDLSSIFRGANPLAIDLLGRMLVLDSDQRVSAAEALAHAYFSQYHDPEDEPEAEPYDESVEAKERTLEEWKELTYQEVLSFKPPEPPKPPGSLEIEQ
Chain of UniProt Q86UX6 (whole entry, looked up): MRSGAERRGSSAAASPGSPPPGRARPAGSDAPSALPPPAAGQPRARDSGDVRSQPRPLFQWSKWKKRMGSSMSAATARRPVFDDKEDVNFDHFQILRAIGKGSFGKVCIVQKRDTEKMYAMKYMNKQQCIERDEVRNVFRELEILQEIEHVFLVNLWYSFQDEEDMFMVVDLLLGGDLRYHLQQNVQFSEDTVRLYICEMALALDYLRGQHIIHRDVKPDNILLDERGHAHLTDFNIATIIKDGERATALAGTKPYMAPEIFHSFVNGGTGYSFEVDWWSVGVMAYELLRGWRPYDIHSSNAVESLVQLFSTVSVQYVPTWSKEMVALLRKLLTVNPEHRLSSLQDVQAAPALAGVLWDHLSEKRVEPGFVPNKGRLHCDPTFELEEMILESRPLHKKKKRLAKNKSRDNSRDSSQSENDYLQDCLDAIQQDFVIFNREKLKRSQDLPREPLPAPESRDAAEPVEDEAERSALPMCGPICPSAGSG
Chain of UniProt P78368 (whole entry, looked up): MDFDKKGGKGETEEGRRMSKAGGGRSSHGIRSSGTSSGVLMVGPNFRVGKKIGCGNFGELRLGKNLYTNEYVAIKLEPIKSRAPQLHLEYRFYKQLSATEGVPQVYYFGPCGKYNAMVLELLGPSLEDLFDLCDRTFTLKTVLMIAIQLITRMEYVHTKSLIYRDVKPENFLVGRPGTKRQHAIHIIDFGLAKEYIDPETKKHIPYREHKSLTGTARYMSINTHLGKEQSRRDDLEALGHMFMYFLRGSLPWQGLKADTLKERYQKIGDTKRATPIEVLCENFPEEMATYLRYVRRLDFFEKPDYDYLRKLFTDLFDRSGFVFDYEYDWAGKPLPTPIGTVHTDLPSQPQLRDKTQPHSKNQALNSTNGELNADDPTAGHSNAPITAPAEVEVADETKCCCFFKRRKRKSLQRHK
Chain of UniProt P42684 (whole entry, looked up): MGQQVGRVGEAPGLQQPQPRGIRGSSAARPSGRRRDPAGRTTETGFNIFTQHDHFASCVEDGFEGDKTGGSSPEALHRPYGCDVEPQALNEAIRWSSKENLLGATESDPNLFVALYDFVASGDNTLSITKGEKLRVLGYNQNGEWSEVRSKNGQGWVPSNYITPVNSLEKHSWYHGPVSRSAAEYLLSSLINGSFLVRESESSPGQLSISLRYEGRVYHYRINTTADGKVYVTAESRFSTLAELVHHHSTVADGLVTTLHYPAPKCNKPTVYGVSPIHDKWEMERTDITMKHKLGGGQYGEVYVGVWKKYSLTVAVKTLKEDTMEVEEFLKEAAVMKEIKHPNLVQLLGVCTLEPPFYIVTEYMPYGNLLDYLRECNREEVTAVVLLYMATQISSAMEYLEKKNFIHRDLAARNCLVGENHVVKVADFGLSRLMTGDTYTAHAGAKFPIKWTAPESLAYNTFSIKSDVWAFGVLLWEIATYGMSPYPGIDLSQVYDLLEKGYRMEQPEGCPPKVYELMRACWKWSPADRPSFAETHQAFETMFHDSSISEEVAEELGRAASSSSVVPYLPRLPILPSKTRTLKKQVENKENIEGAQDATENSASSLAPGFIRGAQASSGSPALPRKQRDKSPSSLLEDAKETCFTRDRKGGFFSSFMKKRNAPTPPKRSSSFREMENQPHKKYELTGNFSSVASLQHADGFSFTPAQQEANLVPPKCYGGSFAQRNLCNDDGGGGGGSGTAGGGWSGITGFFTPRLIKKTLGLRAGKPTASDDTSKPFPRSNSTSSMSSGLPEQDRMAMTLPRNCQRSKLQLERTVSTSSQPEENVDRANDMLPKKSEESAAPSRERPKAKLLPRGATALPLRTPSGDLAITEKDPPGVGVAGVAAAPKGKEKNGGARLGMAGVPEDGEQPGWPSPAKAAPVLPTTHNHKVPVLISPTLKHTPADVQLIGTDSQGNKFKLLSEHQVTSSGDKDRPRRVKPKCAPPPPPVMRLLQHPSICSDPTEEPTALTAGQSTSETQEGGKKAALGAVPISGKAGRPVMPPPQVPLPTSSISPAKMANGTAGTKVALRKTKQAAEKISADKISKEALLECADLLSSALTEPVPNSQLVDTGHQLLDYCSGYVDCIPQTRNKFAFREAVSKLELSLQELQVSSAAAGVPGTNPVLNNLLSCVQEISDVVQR
Chain of UniProt P11362 (whole entry, looked up): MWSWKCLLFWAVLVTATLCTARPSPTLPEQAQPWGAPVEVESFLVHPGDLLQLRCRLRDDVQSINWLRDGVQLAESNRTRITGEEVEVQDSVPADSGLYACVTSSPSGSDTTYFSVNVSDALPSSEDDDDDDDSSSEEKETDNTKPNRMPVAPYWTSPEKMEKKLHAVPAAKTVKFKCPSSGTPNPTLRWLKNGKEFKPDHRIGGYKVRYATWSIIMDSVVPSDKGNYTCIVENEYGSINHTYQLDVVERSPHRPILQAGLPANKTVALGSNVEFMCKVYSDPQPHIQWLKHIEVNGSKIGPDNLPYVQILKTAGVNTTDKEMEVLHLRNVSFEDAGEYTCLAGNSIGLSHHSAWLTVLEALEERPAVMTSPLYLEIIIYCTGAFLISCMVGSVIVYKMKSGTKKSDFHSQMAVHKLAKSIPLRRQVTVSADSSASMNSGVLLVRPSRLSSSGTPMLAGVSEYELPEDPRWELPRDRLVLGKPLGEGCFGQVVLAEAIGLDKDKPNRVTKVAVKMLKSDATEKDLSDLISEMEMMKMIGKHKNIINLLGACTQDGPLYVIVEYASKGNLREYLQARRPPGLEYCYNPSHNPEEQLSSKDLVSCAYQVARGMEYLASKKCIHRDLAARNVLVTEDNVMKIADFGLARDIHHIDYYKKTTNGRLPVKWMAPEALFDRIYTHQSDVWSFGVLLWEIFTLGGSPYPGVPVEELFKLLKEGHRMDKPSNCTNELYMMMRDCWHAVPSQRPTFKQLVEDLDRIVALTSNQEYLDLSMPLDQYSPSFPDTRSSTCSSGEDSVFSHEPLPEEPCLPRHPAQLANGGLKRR
Chain of UniProt Q9BWU1 (whole entry, looked up): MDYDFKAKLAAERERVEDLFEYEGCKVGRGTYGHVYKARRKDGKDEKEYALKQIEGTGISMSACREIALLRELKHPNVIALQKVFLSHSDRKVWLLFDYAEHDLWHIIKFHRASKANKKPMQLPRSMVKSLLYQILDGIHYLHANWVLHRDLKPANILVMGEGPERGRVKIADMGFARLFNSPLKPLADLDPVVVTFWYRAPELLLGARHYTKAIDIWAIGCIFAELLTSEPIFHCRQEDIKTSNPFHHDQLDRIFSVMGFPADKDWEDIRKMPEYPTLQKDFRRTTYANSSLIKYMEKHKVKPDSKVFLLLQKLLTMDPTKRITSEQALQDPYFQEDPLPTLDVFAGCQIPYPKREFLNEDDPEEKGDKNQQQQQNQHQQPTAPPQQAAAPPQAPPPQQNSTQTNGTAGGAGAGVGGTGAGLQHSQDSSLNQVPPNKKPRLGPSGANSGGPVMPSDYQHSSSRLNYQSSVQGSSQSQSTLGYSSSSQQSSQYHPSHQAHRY
Chain of UniProt Q6PHR2 (whole entry, looked up): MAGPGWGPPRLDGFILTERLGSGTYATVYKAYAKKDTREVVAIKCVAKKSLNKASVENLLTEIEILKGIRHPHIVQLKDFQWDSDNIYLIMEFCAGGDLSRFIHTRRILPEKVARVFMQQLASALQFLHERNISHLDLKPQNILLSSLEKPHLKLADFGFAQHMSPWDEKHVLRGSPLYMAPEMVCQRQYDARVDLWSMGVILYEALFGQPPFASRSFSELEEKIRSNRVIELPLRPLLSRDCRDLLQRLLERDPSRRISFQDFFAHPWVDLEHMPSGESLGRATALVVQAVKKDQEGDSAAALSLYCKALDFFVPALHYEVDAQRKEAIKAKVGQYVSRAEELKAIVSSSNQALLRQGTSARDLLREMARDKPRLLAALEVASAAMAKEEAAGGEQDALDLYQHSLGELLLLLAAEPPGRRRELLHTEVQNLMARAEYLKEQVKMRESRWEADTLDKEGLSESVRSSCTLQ

Block 1 — tested at: 1 µM
Structure (SMILES): CS(=O)(=O)NCC[C@H](NC(=O)c1cncc2c1cnn2-c1ccc(F)cc1)c1ccnc(S(C)(=O)=O)c1
The remaining binding was 100% (STK32C (Homo sapiens, UniProt Q86UX6); cell-free assay, competition with immobilised ligand).
MAPK11 (Homo sapiens, UniProt Q15759); cell-free assay, competition with immobilised ligand — remaining binding: 100%.
It gave 80% for remaining binding (CDK19 (Homo sapiens, UniProt Q9BWU1); competition binding).
The remaining binding was 86% (NEK3 (Homo sapiens, UniProt P51956); cell-free assay, competition with immobilised ligand).

Block 2 — SMILES: CNc1cc2c(Nc3cccc(Br)c3)ncnc2cn1; observed: enzyme activity; action: inhibitor; tested at: 0.5 µM; relative to: control
The remaining activity was 89.6% (GSK3B (Homo sapiens, UniProt P49841)).
MAP2K2 (Homo sapiens, UniProt P36507) — remaining activity: 90.4%.
The remaining activity was 73.9% (MST1R (Homo sapiens, UniProt Q04912)).
EPHA3 (Homo sapiens, UniProt P29320) — remaining activity: 96.1%.
The remaining activity was 126% (MAP3K14 (Homo sapiens, UniProt Q99558)).
For MERTK (Homo sapiens, UniProt Q12866): remaining activity read 87.5%.
The remaining activity was 95.8% (CSNK1G2 (Homo sapiens, UniProt P78368)).
The remaining activity was 103% (JAK3 (Homo sapiens, UniProt P52333)).
The remaining activity was 75.9% (WEE1 (Homo sapiens, UniProt P30291)).
It gave 84.8% for remaining activity (ABL2 (Homo sapiens, UniProt P42684)).
It gave 96.5% for remaining activity (FGFR1 (Homo sapiens, UniProt P11362)).
It gave 97.7% for remaining activity (ACVR1B (Homo sapiens, UniProt P36896)).
For TAOK2 (Homo sapiens, UniProt Q9UL54): remaining activity read 95.3%.
ULK3 (Homo sapiens, UniProt Q6PHR2) — remaining activity: 95.8%.

Block 3 — technique: RNA Bind-n-Seq; molecule type: RNA; medium: in vitro; tested at: 365 nM; relative to: no-protein control; direction: higher = stronger binding
Target: RNA binding protein fox-1 homolog 2, RRM domain, GST-SBP tag (RBFOX2, Homo sapiens, UniProt O43251-10, residues 100-194)
Notes: natural RNA segment, single round, ends assumed
Residues (chain): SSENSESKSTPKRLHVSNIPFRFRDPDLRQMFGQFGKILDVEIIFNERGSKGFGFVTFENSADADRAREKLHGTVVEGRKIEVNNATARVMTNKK
`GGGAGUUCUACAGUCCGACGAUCGGGUGAUGCCAGGUUGUCCCGUCACUGGGGUCCCAUCUGUAAAUUCUUUGCGCCCUUCCCGGCUGCUGCCUGGGGCCCUUUCCUGCUCUCCCGUCCGCUGUGGGUGGUCCUGGAAUUCUCGGGUGCCAA`: “RBNS enrichment (R)” 0.442.
`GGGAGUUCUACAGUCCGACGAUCUUCCUAUGGGUGGUCCAGACAAAAGUAUGUCCUCCUGUAGGACGCUAGAGGGCGCUCUAGGACAGCGUCGGAUCCUGUCUCUGGCAACCCCUUGCAAGCCCACGGGGCUUUGGAAUUCUCGGGUGCCAA`: “RBNS enrichment (R)” 0.306.
Under “RBNS enrichment (R)”, `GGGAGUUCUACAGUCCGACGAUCUAAUCCUGUAUUAUUUCUUCUACUUUGUUUUGUGUAAAAGGGGAAAAAAUAAAAAAAGCUGGAAUCUCAUGUCUCACUUUCUUUAUAACUUAGCCAAUAUAAUAUUUAUGUGGAAUUCUCGGGUGCCAA` is recorded as 0.619.
`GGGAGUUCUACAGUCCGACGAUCACUUCUUCCUAGCCAAUUCCUCAUUCUCUCACGUGACAACAGCUGAAAGUGCCAGGUGCUAGAUUCCUCCUCCUUGGAAUUGUGUUAGGCUAGUUGGUCCUCUUUGAGGAUGGAAUUCUCGGGUGCCAA` — result for “RBNS enrichment (R)”: 0.411.
Under “RBNS enrichment (R)”, `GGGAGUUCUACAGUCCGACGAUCAAGCAGCUUCAGGAGAAAAAGAGCAAUUACUUUUGAAUUCUCCAAUAAAUCUGGACAAUGCCGUUAGCGAAGAGCCCUUCCUGGUGAAGGCAAACCCAUGGUCACAGCAGUGGAAUUCUCGGGUGCCAA` is recorded as 0.305.
For `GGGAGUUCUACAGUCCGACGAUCUGACCUAACAGGACAGAACUUUCUCCAAUUACUGGGUGAGUCAGAGCUGCACUGGUGACUCACUUCAAUGUGUCAUUUCCGGCUGCUGUAUGUGAGCAGUGGACACGUGGUGGAAUUCUCGGGUGCCAA`, “RBNS enrichment (R)” read 2.89.
`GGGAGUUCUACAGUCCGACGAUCGACUUGAAUGGAUAGAAUAGAAAUGAAUAAGCUGGUUUUUGUUUUUCCAAAUGAGAUUUAGAUUUGUUUUUCUCAUGCAUAAAUGAUUUUAAUUCAGUUUUAACCAGUGAUGGAAUUCUCGGGUGCCAA`: “RBNS enrichment (R)” 1.88.
`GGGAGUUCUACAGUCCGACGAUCGUUGUUGUUUUGUUUUGUUUUUUGUUUUGCUUUUGCGGUAACUGCACCACUAUGAAACAUUGACUUGCUAUUUCAAAUUCCUGGAUUCUAAGGAAUUUCUCAUCUGACAAUGGAAUUCUCGGGUGCCAA`: “RBNS enrichment (R)” 0.597.

Mixed results — tested at: 100 µM
`CC1(C)O[C@@H]2C[C@H]3[C@@H]4C[C@H](F)C5=CC(=O)C=C[C@]5(C)[C@@]4(F)[C@@H](O)C[C@]3(C)[C@]2(C(=O)CO)O1` gave a viability of 87% (HaCaT; 36 h).
`COC(=O)Nc1nc2cc(C(=O)c3ccc(F)cc3)ccc2[nH]1` gave a viability of 38.2% (A-375; 18 h).
The viability of `Cc1ccc(C(=O)Nc2ccc(S(=O)(=O)O)c3cc(S(=O)(=O)O)cc(S(=O)(=O)O)c23)cc1NC(=O)c1cccc(NC(=O)Nc2cccc(C(=O)Nc3cc(C(=O)Nc4ccc(S(=O)(=O)O)c5cc(S(=O)(=O)O)cc(S(=O)(=O)O)c45)ccc3C)c2)c1` is reported as 78.1% (HaCaT; 36 h).

Excerpt of the above (block 1):
MAPK11 (Homo sapiens, UniProt Q15759); cell-free assay, competition with immobilised ligand — remaining binding: 100%.
The remaining binding was 100% (STK32C (Homo sapiens, UniProt Q86UX6); cell-free assay, competition with immobilised ligand).
The remaining binding was 86% (NEK3 (Homo sapiens, UniProt P51956); cell-free assay, competition with immobilised ligand).
It gave 80% for remaining binding (CDK19 (Homo sapiens, UniProt Q9BWU1); competition binding).
